Measured values collected from several papers.
Lines come from different studies, so protocols differ. ± gives the spread as reported.
Organism: Trypanosoma brucei rhodesiense

`CCOC(=O)C(C)NC(=O)CN1C(=O)N/C(=C\c2ccc(C)cc2)C1=O` (stereo not drawn) has an IC50 of greater than 57 µM (cell viability; IL1501; 72 h).
For `CCCCOC(=O)/C=C/c1ccc(O)c(O)c1`, antitrypanosomal activity read “active” (STIB900; concentration not given, bloodstream trypomastigotes, active if IC50 < 10 µM).
`Cc1ncnc2c1c(C(F)(F)F)cn2[C@@H]1O[C@H](CO)[C@@H](O)[C@H]1O` has an EC50 of 1.89 µM (resazurin; STIB-900; axenic HMI-9 medium).
The IC50 of `O=[N+]([O-])c1ccc(/C=N/N=C/c2ccc(F)cc2)o1` is reported as 2.42 ± 0.4 µM (parasite growth, CellTiter-Glo; IL1501 bloodstream form; 72 h).
`Cc1ncnc2c1c(C1=CCSCC1)cn2[C@@H]1O[C@H](CO)[C@@H](O)[C@H]1O` gave an EC50 of greater than 64 µM (resazurin; STIB-900; axenic HMI-9 medium).
Under antitrypanosomal activity, `CCCOC(=O)/C=C/c1ccc(O)c(O)c1` is recorded as “active” (STIB900; concentration not given, bloodstream trypomastigotes, active if IC50 < 10 µM).
The IC50 of `O=[N+]([O-])c1ccc(/C=N/N=C/c2ccc(O)cc2)s1` is reported as 0.37 ± 0.05 µM (parasite growth, CellTiter-Glo; IL1501 bloodstream form; 72 h).
For `CCOC(=O)CNC(=O)CN1C(=O)S/C(=C\c2ccc(OC)c(O)c2)C1=O`, the IC50 was greater than 64 µM (cell viability; IL1501; 72 h).
For `O=[N+]([O-])c1ccc(/C=N/N=C/c2ccc(OCc3ccccc3)cc2)s1`, the IC50 was 4.1 ± 1.13 µM (parasite growth, CellTiter-Glo; IL1501 bloodstream form; 72 h).
For `O=C(Nc1ccc2c(c1)CN(c1ccc(Cl)cc1)C2=O)N1CC[C@H](O)C1`, growth inhibition read “inactive” (cell growth, resazurin; STIB-900; concentration not given, 3 days).
`CC(C)OC(=O)/C=C/c1ccc(O)c(O)c1` — result for antitrypanosomal activity: “active” (STIB900; concentration not given, bloodstream trypomastigotes, active if IC50 < 10 µM).
With `O=[N+]([O-])c1ccc(/C=N/N=C/c2ccccc2)o1` the IC50 was 4 ± 1.09 µM (parasite growth, CellTiter-Glo; IL1501 bloodstream form; 72 h).

A few entries again:
For `O=C(Nc1ccc2c(c1)CN(c1ccc(Cl)cc1)C2=O)N1CC[C@H](O)C1`, growth inhibition read “inactive” (cell growth, resazurin; STIB-900; concentration not given, 3 days).
